Experimental data gathered from unrelated publications.
Parts stem from different laboratories: compare values within a part only. Substitutions count along the parent as printed.

Sample 1
Target: CCNA1, cyclin fold, Cln2 fusion (human)
Technique: yeast growth competition, sequencing
Sample: yeast
Notes: weak parent motif
Baseline: not given
Direction: higher = stronger binding
Quantity: normalised enrichment score
Parent: SLBP docking peptide (human); ARYKRKLLINDFG
R5G: 0.253
N10G: 0.697
Y3K: -0.111
A1V: 0.584
G13V: 0.829
R2N: 0.607
Y3R: 0.0269
R5W: -0.057
L7E: 0.176
R5V: 0.442
G13Y: 0.262
L8N: 0.48
D11E: 0.48
L7R: 0.312
R5E: 0.4
Y3Q: 0.47
N10I: 0.44
K6S: -0.0334
F12Y: 0.654
K6N: 0.568
R5F: 0.252
F12H: 0.156
N10H: 0.289
I9S: 0.811
L7Q: 0.309

Sample 2
Target: ABI1, truncated, D143A, DHFR fusion (Arabidopsis thaliana)
Technique: DHFR PCA, deep sequencing
Sample: yeast
Notes: methotrexate growth selection, single substitutions
Added: (+)-ABA 0.032 µM
Baseline: wild-type fitted maximum
Direction: higher = stronger binding
Quantity: relative binding score
Parent: PYL1, truncated, DHFR fusion (Arabidopsis thaliana); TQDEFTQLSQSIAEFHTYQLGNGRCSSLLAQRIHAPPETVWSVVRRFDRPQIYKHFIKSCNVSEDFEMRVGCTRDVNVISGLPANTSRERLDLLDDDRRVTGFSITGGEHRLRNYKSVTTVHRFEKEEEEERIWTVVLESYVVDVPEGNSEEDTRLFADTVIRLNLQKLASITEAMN; partner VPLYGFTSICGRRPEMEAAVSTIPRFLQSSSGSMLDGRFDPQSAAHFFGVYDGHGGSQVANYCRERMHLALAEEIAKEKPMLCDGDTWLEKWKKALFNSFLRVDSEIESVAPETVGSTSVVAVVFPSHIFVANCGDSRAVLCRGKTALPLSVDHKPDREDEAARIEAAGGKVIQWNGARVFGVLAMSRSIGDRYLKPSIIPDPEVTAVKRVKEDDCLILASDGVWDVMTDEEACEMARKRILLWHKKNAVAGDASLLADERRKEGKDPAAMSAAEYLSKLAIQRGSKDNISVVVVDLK
L169H: 2.79%
A35L: -1.2%
H122W: -5.62%
V118N: -6.74%
V161K: 0.174%
G108H: -9.11%
L82F: 72.9%
V70M: 2.51%
A30L: 12.6%
L156W: 3.71%
T120A: -1.73%
R132V: 24%
L8Y: 17.4%
I105Y: -9.92%
N85D: 14.5%
P83M: 9.33%
L28K: 2.07%
A175D: 16.8%
V44F: -6.16%
V62Y: 5.06%
D65V: -5.66%
C72F: 1.37%
G102D: -1.44%
F66C: 6.59%
S140W: 2.11%

Sample 3
Target: Histone acetyltransferase KAT6A, winged helix 2, GST fusion (KAT6A, Homo sapiens, UniProt Q92794, residues 85-181)
Technique: protein binding microarray
Molecule type: double-stranded DNA, one strand shown
Sample: in vitro
Concentration: not given
Notes: 8-mer, flanks averaged, mean of 2 arrays, mostly near background
Baseline: not given
Direction: higher = stronger binding
Quantity: E-score
Construct (chain): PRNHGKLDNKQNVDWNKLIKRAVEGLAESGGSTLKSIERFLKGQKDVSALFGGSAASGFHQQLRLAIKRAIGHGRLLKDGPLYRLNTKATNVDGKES
ACGTCAAG: -0.143
CGGCCGTC: 0.0651
AGCGTGAT: -0.0581
CTGACATC: -0.0561
ATGCGCTA: -0.115
ACACGAGT: -0.0445
CGCTCCAG: 0.174
ATATTCGG: 0.0302
TATCACAA: -0.0191
AAAACAGG: -0.107
CTATCAGA: -0.0215
CATGCACG: -0.0471
GGAAATTA: -0.0289
ATAAGTAG: -0.0634
CGGCATCA: 0.178
CGAACTGA: -0.0898
GACTAGTC: -0.172
CTGCACTC: 0.0423
CCATCGAG: 0.0565
AGCTTTAC: -0.144
AACCCATA: 0.0501
GAGACAGA: 0.0113

Sample 4
Target: Sal-like protein 4, full length isoform B (SALL4, Homo sapiens, UniProt Q9UJQ4-2, residues 1-616)
Technique: universal PBM
Molecule type: double-stranded DNA, one strand shown
Sample: in vitro
Concentration: not given
Notes: 8-mer, flanks averaged, mean of replicates
Direction: higher = stronger binding
Quantity: E-score
Residues (chain): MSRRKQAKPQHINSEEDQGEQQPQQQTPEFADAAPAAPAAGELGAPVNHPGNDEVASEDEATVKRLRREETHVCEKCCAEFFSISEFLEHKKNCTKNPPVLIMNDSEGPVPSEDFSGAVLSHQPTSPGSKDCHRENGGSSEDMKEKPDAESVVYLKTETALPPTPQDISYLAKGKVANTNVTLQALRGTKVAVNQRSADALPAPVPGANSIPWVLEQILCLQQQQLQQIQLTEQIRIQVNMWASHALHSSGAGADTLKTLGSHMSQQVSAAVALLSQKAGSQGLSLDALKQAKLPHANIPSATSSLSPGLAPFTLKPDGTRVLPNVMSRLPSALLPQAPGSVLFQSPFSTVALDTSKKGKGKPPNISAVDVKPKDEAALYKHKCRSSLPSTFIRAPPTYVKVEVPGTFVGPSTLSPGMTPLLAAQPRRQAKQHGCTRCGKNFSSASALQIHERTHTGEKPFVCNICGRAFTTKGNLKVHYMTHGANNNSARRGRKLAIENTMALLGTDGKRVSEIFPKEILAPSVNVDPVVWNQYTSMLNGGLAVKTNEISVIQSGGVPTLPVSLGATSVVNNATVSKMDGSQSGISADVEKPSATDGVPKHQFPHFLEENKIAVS
AGAGCCGG: -0.295
CTCCACGC: -0.157
GGCGTCCC: -0.395
AATACCAC: 0.154
CGTGGTTA: -0.0508
GCCCACGA: -0.237
AATAATCG: 0.331
ATGCTTCC: 0.0194
TCAGACCA: 0.0262
CGAAAAAA: 0.238
AACCAATT: 0.189
CTAGATGC: -0.0259
AACGTGGA: -0.039
CAGTGCCG: -0.266
AAGCTATT: 0.162
GAGGAGGC: -0.349
CTTGCGAC: -0.148
AGCAATGC: 0.0588
ACTTCGCC: -0.0857
CACCCAGG: -0.349
ACTAATTG: 0.128
CCTCGGCC: -0.265
CTTGAATC: 0.144
CAAGACAG: -0.12
CTACATGA: 0.0451

Sample 5
Target: JDP2, bZIP domain (human)
Technique: DHFR protein complementation
Sample: yeast
Notes: single substitutions, most at no-binding floor
Baseline: wild-type JUN-FOS pair
Direction: higher = stronger binding
Quantity: binding fitness
Parent: JUN, bZIP domain (human); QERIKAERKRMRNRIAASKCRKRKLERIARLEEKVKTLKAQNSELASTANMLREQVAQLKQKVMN; partner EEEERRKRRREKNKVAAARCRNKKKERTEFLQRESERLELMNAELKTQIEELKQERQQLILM
K34F: 0.2 natural log
Q41A: 0.253 natural log
N42K: 0.125 natural log
A46F: 0.175 natural log
E33K: 0.115 natural log
A40T: 0.423 natural log
I28V: 0.287 natural log
S47N: 0.274 natural log
K39Q: 0.248 natural log
V35R: 0.0317 natural log
Q41W: -0.4 natural log
K36C: 0.367 natural log
K36W: 0.223 natural log
T37V: 0.312 natural log
Q55K: 0.235 natural log
A29D: 0.272 natural log
Q55W: 0.114 natural log
L38N: -0.139 natural log
A57T: 0.305 natural log
Q55E: 0.308 natural log
V56P: -1.04 natural log
A29R: 0.232 natural log
A29I: 0.278 natural log
E54C: 0.176 natural log
S43V: 0.194 natural log

Excerpt of the above (sample 4):
ATGCTTCC: 0.0194
TCAGACCA: 0.0262
CGAAAAAA: 0.238
AACCAATT: 0.189
CTAGATGC: -0.0259
AACGTGGA: -0.039
CAGTGCCG: -0.266
AAGCTATT: 0.162
GAGGAGGC: -0.349
CTTGCGAC: -0.148
AGCAATGC: 0.0588
